Results of several laboratories.
Parts stem from different laboratories: compare values within a part only. Substitutions count along the parent as printed.

Sample 1
Target: ABI1, truncated, D143A, DHFR fusion (Arabidopsis thaliana)
Technique: DHFR PCA, deep sequencing
Medium: yeast
Setting: methotrexate growth selection, single substitutions
With: (+)-ABA 0 µM
Baseline: wild-type fitted maximum
Reading: higher = stronger binding
Quantity: relative binding score
Parent: PYL1, truncated, DHFR fusion (Arabidopsis thaliana); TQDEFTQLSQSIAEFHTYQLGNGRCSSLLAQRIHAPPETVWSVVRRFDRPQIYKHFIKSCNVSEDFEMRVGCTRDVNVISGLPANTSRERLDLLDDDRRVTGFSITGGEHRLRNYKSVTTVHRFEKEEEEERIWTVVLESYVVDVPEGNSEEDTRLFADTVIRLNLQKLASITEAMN
D65E: 13%
Y53P: -0.307%
C72S: 24.4%
S117C: 2.07%
F66T: -5.18%
K168L: -2.78%
F15I: -2.36%
H122Q: 2.24%
T120Q: -9.41%
S171L: 16.1%
E14A: 5.5%
S11H: 10.2%
L156N: -7.76%
R123H: 24.4%
D97K: 30.8%
E130G: 26.6%

Sample 2
Target: RING finger protein unkempt homolog, zinc fingers 1-6, GST-SBP tag (UNK, Homo sapiens, UniProt Q9C0B0, residues 30-357)
UniProt Q9C0B0, sequence (30-357, looked up): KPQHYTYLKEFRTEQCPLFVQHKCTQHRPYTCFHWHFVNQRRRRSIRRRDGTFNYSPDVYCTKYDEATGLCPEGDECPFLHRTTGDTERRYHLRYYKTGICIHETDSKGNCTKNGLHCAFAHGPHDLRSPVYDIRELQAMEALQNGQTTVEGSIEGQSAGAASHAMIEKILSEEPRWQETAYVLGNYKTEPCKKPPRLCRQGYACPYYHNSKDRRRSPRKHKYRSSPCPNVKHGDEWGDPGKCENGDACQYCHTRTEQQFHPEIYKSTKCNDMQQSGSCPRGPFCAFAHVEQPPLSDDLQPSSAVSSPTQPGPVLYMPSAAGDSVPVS
Technique: RNA Bind-n-Seq
Form: RNA
Medium: in vitro
Tested at: not given
Setting: RNA with constant flanks, human-mouse chimeric sites, ends assumed
Baseline: input RNA pool
Reading: higher = stronger binding
Quantity: bound/input enrichment
Constant ends, left off below: GGGAGUUCUACAGUCCGACGAUC … CAACAGAGGAUUGAGCAUCA
UCCUUGGAACCCAGUCAUAUAGGUGACCUGCAGAAAGCAGACACCAGUAGUCAAGGUGCUUUAGUGUUUCUCUCAAAGGACUACGAAAUAGAAAAUCAAAAUCCCCUGGCCUCUCCUACG: 2.82 ratio
UUGAAAACUGAUUCAAGCAAGUUUGAAUAUCACAAUGUUAGCUUUCUAAUUCCAUAAAAGUACUUGGUUUUUACAGUUUAUAAUCUGCAAUCCAUCAAGCGCCAUUUGUAAAGAGCAACU: 0.279 ratio
ACAGUUAUAUUGUUGAGGUUUGUAUUUAUAUAUUCUUGUAGUGUCUGCUUGCCUGUGACUUCUGGUAAAAUAAAAUAUUAAAAUUACAAUAUUUUAGCAUGGUAUUUAACAUUUUCUAAA: 2.55 ratio
ACUCUUGACUCUUUCCAUCCUCUUCCUUUCCCUCUUGAUAUUCAAGGCCAUGAAUCCCAAAAUAACAGUCUUAGUGGCUAGCACCCACCCAAACUGAGAAUAAAUCCAAACUGACAACUC: 0.528 ratio
CUAAUCCCCUUUACUGCUCCCCCACUUCUCAUGGUAAUGACAAAAACUUAUAUCCCCGUCCUAGCUUUCACUCAGAUGGCUUAUGGAGCCGGUUUCCUAGCUUUCUUGGGAGGGAUCAGA: 0.571 ratio
AUGGUUGUGUCUCUUGAGAUCUAAAAACAAGAUGACUUUUCCUGGCACAUAUUCCAAAGCAAAGACUUUGUUGCCUGCUGCUUCUUGUCUAAUUUACAGGGAUAUUUAAUUUUGUCAGGU: 0.281 ratio
CUUAAUGAUAUUUUGAGUGAAUAAAUGAAGCUAAAAUGUCUGCUUUUGGUACAACACGCAUUAAUAAAAGGUUAAGUUUUGUUUUCCACUGAAGUACGUAAUACUUACUCAGAAAAAAAC: 0.136 ratio
CGGAGCCCUCCUCUCCCACAGGCCCAAGAUAUAACCCACCAGUGCCUUUUGUCUUCCUGUCAGCUCUGUCAAUCACGCCUGUCCUCUCACGCCCACACUCCCCAGCCAAAGUGGGGAGGG: 0.615 ratio
GGCCUGGACCUUCCUGGGGCUAGUACAAAUAGCGGCAUGGAGGCUCAGAGAGGAAAGUUUGUUAGUGGAGGCAGUGGUAGAGGCCGUCAUGUACGGUCCUUUACUCGAUAGAUGUGUUCU: 0.221 ratio
CCUGCUCAGAUCACCAUGAAAGUAAUCCAAGGCCUAUAUAGUGGGGUCACCACAGUGGAACUGGACACCCUGGCUGCUGAGACAGCCGCAACCUUGACUACUAAGCACCCUGACUAUGCC: 0.186 ratio
ACCAUUUUCGCGGUUCAGGCUUUGUGUGUAGUUCACUUACGGUAUUAAAUUAUUAUUCUGCUUAGCUUAAAGUAAGGAUAAUUGCAUUUAAAGAGGUUACUGAAUGUUGUUAUUGUUCUU: 0.478 ratio

Sample 3
Target: Interferon regulatory factor 7, full length, phosphomimetic (IRF7, Homo sapiens, UniProt Q92985, residues 1-503, S101K/S471D/S472D/S475D/S476D/S477D/S483D/S484D/S487D)
Technique: protein-binding microarray
Form: double-stranded DNA, one strand shown
Medium: in vitro
Tested at: 250 nM
Setting: 60-bp whole probe
With: salmon DNA 0.4 mg/ml
Baseline: random background probes
Reading: higher = stronger binding
Quantity: log fluorescence
Constant ends, left off below: GCCTAGCAC … GTCTTGATTCGCTTGACGCTGCTG
Construct (chain): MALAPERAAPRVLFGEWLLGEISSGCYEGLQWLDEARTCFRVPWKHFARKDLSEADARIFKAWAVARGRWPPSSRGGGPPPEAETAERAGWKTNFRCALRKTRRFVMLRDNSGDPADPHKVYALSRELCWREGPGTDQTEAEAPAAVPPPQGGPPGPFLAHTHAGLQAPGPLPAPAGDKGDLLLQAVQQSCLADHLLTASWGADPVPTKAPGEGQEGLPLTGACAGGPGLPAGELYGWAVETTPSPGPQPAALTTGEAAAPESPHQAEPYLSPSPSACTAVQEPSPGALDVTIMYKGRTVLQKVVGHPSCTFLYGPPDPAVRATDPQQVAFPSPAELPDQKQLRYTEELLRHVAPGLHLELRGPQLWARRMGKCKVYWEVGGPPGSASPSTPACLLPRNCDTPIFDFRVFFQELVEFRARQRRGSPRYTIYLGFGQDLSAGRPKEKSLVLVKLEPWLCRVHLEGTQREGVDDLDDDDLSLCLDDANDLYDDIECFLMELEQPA
TTTTATTTATAAATTATCTTGTGCTAG: 0.392 z-score
TTAGGTCTCGGTCTGGGTTAGTGCTAG: 0.939 z-score
TTCGATATCGGGACTGGATTAGTGCTA: 0.259 z-score
TTAGGTCTCCTAATCCTTTAGTGCTAG: 0.233 z-score
GACGATTTCGGGATTGGAGACGTGCTA: 0.29 z-score
GGCGGTATCGGTTTCGGGACGTGCTAG: 6.78 z-score
TTAGGTTTCGGGTTTCGGTTGGTGCTA: 12.4 z-score
GACGGGTTCGGACTGGGGACGTGCTAG: 0.18 z-score
TCATATATACTATATGCAACTGTGCTA: 0.781 z-score
AATGTATAACGCCATTAGCTGTGCTAG: -0.0844 z-score
CTTTATGTCCTGTCTACATGGGTGCTA: 0.509 z-score
TTAGGTTCCCTTTTTCTTTAGTGCTAG: 3.16 z-score
TTAGATTTCGGGCTTCGATTAGTGCTA: 0.389 z-score
GTCGATTTCAGTCTCGAGACGTGCTAG: 1.73 z-score
TCATGTTTGATAATTTTACTGTGCTAG: 0.112 z-score
TTAGGTTCCCTTCTCCTTTAGTGCTAG: 2.12 z-score
GGTCTGGCTGGCTCCTGCACGTGCTAG: -1.16 z-score
TTAGATTCCGGTTTCGATTAGTGCTAG: 10.8 z-score
CTGACTTTGGAGATGACTCAGTGCTAG: -0.0995 z-score
ATGGGTATGGCCTATTTATATGTGCTA: -0.547 z-score
TTTAGCAGACTGAGAGGAACGTGCTAG: -0.459 z-score
TTAGGTTCCGGTTTCGGTTGGTGCTAG: 11.5 z-score
TTTGGTTTCGGTTTCGGTTAGTGCTAG: 15.2 z-score
TCATATTTTAATCACATACTGTGCTAG: 0.957 z-score
GAGGGTCTCGGTCTCGGGACGTGCTAG: 0.434 z-score

Sample 4
Target: CCNF, cyclin fold, Cln2 fusion (human)
Technique: yeast growth competition, sequencing
Medium: yeast
Setting: strong parent motif
Baseline: not given
Reading: higher = stronger binding
Quantity: normalised enrichment score
Parent: BRCA2 docking peptide (human); PSIKRNLLNEFDR
K4F: 1.52
P1S: 1.85
N6M: 0.951
N9L: 4.55
K4N: 3.44
K4H: 1.45
N9F: 3.97
S2H: 2.64
N9H: 3.48
L8R: -0.124
R13P: 2.65
N6H: 1.52
R5N: -0.358
N9M: 4.86
D12E: 4.03
I3F: 1.74
I3T: 2.01
D12I: 2.19
D12N: 5
D12R: 2.71
I3R: 1.11
K4S: 2.79
I3H: 1.82
I3Y: 1.75
R13H: 1.33

Mixed results
PhoQ, residues 284 288 289 292 302 303 SQSLSM — fold induction (PhoP, residues 12 14 15 18 19 GQALL (Escherichia coli, UniProt P23836); Sort-seq, refers to: YFP reporter; E. coli; PhoQ-PhoP variant library, with: 10 µM Mg2+; baseline: high Mg2+ state, higher = stronger signaling): 25.2
